Assay results pooled from the literature.
± gives the spread as reported.
LGALS3: Galectin-3 (LGALS3, Homo sapiens, UniProt P17931)

SMILES = COc1ccc(-c2cc(C(F)(F)F)nc(NCc3ccccc3)n2)cc1OC; target = GLP1R (Homo sapiens, UniProt P43220); assay = affinity cooperativity, allosteric modulator; test system = HEK-293T overexpressing GLP1R; setting = together with: GLP-1; measurement = cooperativity factor alpha; result = 3 to 5
SMILES = COC(=O)c1ccc(CNC(=O)[C@@H]2C[C@@H](O)CN2C(C)=O)cc1; target = von Hippel-Lindau disease tumor suppressor, with Elongin B/C (VHL, Homo sapiens, UniProt P40337); assay = isothermal titration calorimetry; setting = concentration not given, 25 °C; measurement = binding enthalpy (ΔH); result = -4.35 ± 0.02 kcal/mol
SMILES = CC[C@H](C)[C@H](NC(=O)[C@@H](NC(=O)[C@H](Cc1ccc(O)cc1)NC(=O)[C@H](C)NC(=O)[C@H](CC(N)=O)NC(=O)[C@H](CCC(=O)O)NC(=O)[C@H](Cc1ccccc1)NC(=O)[C@@H](NC(=O)[C@H](CO)NC(=O)[C@H](CCC(=O)O)NC(=O)[C@H](CCCCN)NC(=O)[C@H](Cc1ccccc1)NC(=O)[C@@H](N)CCCCN)C(C)C)C(C)C)C(=O)N[C@@H](Cc1ccc(O)cc1)C(=O)N[C@@H](CO)C(=O)N[C@@H](CO)C(=O)N[C@@H](CCSC)C(=O)N[C@@H](CC(C)C)C(=O)N[C@@H](Cc1ccc(O)cc1)C(=O)N[C@@H](CCCNC(=N)N)C(N)=O; target = Fibroblast growth factor 14 (Homo sapiens, UniProt Q92915); measurement = kon; result = 23200 ± 1600 M⁻¹ s⁻¹
SMILES = CC(C)C[C@H](NC(=O)[C@H](Cc1ccc(O)cc1)NC(=O)[C@@H](CCCNC(=N)N)NC(=O)[C@@H](CO)NC(=O)[C@H](Cc1ccccc1)NC(=O)[C@H](CC1CCCCC1)NC(=O)[C@H](CC(=O)O)NC(=O)CCC(C(=O)O)N1CCCN2CCN(CCCN(CC(=O)O)CC2)CC1)C(=O)N[C@@H](Cc1c[nH]c2ccccc12)C(=O)N[C@@H](CO)C(=O)O (stereo partly shown); target = Urokinase plasminogen activator surface receptor (Homo sapiens, UniProt Q03405); assay = binding, SPR; measurement = kon; result = 400000 M⁻¹ s⁻¹
SMILES = CNc1ccccc1C(=O)O[C@H]1C[C@H](n2cnc3c(N)ncnc32)O[C@@H]1COP(=O)(O)OP(=O)(O)O; target = Unconventional myosin-Va (Gallus gallus, UniProt Q02440, D297C/G292C/I296C/S293C/V295G); assay = van't Hoff analysis; setting = concentration not given, together with: 10 mM Mg2+; measurement = ∆G of ligand binding; result = -7.8 ± 0.1 kcal/mol
SMILES = COc1c(F)c(F)c(C(=O)N[C@H]2[C@@H](O)[C@@H](CO)O[C@@H](S[C@@H]3O[C@H](CO)[C@H](O)[C@H](NC(=O)c4c(F)c(F)c(OC)c(F)c4F)[C@H]3OS(=O)(=O)O)[C@@H]2O)c(F)c1F; target = LGALS3; assay = ITC; setting = Kd fixed from FP; measurement = –TΔS; result = 1.72 ± 0.287 kcal/mol
SMILES = O=C(O)[C@H]1O[C@@H](O[C@H]2[C@H](O)[C@H](O)[C@H](O[C@H]3[C@H](O)[C@H](O)[C@H](O)O[C@@H]3C(=O)O)O[C@H]2C(=O)O)[C@@H](O)[C@@H](O)[C@@H]1O[C@@H]1O[C@@H](C(=O)O)[C@@H](O)[C@H](O)[C@@H]1O; target = Beta-lactoglobulin (LGB, Bos taurus, UniProt P02754, A134V/G80D); assay = isothermal titration calorimetry; setting = concentration not given, pH 2.65, 37 °C, 50 mM KH2PO4; scale = ligand per protein; measurement = binding stoichiometry; result = 5
SMILES = CCc1cc(C)n2nc(-c3ccc(OCC[18F])cc3)c(CC(=O)N(CC)CC)c2n1; target = Tspo (Rattus norvegicus, UniProt P16257); assay = two-tissue compartment model; test system = rat C6 glioma model, tumor; setting = 60 min dynamic PET; measurement = k2 efflux rate constant; result = 2.36 ± 0.617 min⁻¹
SMILES = CC(=O)N[C@H]1[C@@H](O[C@H](C)[C@H](NC(=O)[C@@H](NC(=O)CNC(=O)[C@@H](N)Cc2c[nH]cn2)C(C)C)C(=O)N[C@@H](CO)C(=O)N[C@@H](C)C(=O)N2CCC[C@H]2C(=O)N[C@@H](CC(=O)O)C(N)=O)O[C@H](CO)[C@H](O)[C@@H]1O[C@@H]1O[C@H](CO)[C@H](O)[C@H](O)[C@H]1O; target = LGALS3; assay = binding, isothermal titration calorimetry; setting = full-length protein; measurement = –ΔG; result = 4.72 kcal/mol
SMILES = O=C(NCCCN1CCC(Cc2ccccc2)CC1)c1cccc2ccccc12; target = SLC6A4 (Homo sapiens, UniProt P31645); assay = serotonin uptake, inhibitor; test system = HEK293; setting = together with: [3H]serotonin; measurement = IC50; result = 7.51 µM
SMILES = Cc1cc(=O)c(O)c(CN2CCSCC2)n1C; target = TDO2 (Homo sapiens, UniProt P48775); measurement = ligand efficiency; result = 0.42
SMILES = CCCN(CC(=O)N(CCC)CC(=O)N(CCC)CC(=O)N(CCC)CC(=O)N(CC(=O)N(CCC)CC(=O)N(CCC)CC(=O)N(CCC)CC(=O)N(CCC)CC(=O)N(CC(=O)N(CCC)CC(=O)N(CCC)CC(=O)N(CCC)CC(=O)N(CCC)CC(=O)N(CC(N)=O)Cc1cn(CCCNC(=O)CCCOc2cccc(-c3nc4ccc(-c5nc6ccc(N7CCN(C)CC7)cc6[nH]5)cc4[nH]3)c2)nn1)Cc1cn(CCCNC(=O)CCCOc2cccc(-c3nc4ccc(-c5nc6ccc(N7CCN(C)CC7)cc6[nH]5)cc4[nH]3)c2)nn1)Cc1cn(CCCNC(=O)CCCOc2cccc(-c3nc4ccc(-c5nc6ccc(N7CCN(C)CC7)cc6[nH]5)cc4[nH]3)c2)nn1)C(=O)CNCc1cn(CCCNC(=O)CCCOc2cccc(-c3nc4ccc(-c5nc6ccc(N7CCN(C)CC7)cc6[nH]5)cc4[nH]3)c2)nn1; target = MBNL1–r(CUG)109 complex; assay = MBNL1 displacement; test system = 0.65 pmol r(CUG)109; setting = unit not given, together with: yeast tRNA 3.7 µM; scale = relative to: monomer 2 IC50 per module; measurement = multivalent effect; result = 71
SMILES = Cc1ccc(-c2nc(Nc3nc4ccccc4o3)ncc2C#N)cc1; target = Grm5 (Rattus norvegicus, UniProt P31424); assay = calcium mobilization, negative allosteric modulator; setting = together with: glutamate EC80; scale = relative to: maximal glutamate response; measurement = maximal response; result = 2.6 ± 0.7%
SMILES = CC(/C=C/C(=O)NO)=C\[C@@H](C)C(=O)c1ccc(N(C)C)cc1; target = HDAC8 (Homo sapiens, UniProt Q9BY41); assay = ITC in four buffers; setting = concentration not given, pH 7.5; measurement = protons released on binding; result = 0.71 ± 0.04 protons per ligand
SMILES = CC(C)CCSc1nc2c([nH]1)c(=S)n(C)c(=O)n2C; target = Androgen receptor (AR, Homo sapiens, UniProt P10275); assay = reporter gene, antagonist, PSA-luciferase; test system = HeLa-A6; setting = 10 µM, 24 h, together with: 5 nM dihydrotestosterone; scale = relative to: maximal activity; measurement = remaining activity; result = 74%
SMILES = COc1cc(Cc2c[nH]c3ncc(C(F)(F)F)cc23)cc(OC)c1; target = FGFR1 (Homo sapiens, UniProt P11362); setting = 300 K; measurement = ligand efficiency; result = 0.44
SMILES = O=C(Nc1cc(C(F)(F)F)cc(C(F)(F)F)c1)c1cc(Cl)ccc1O; target = Androgen receptor, AR-V7 isoform (AR, Homo sapiens, UniProt P10275); assay = Western blot; test system = CWR22Rv1; setting = 1 µM, 16 h; measurement = AR variant protein level; result = inhibited
SMILES = CC[C@H](C)[C@H](NC(=O)[C@H](CC(N)=O)NC(=O)[C@H](CC(N)=O)NC(=O)[C@H](CCCNC(=N)N)NC(=O)[C@H](CC(N)=O)NC(=O)[C@H](CCCNC(=N)N)NC(=O)[C@H](CCCCN)NC(=O)[C@@H](NC(=O)[C@H](CC(N)=O)NC(=O)[C@H](CCSC)NC(=O)[C@H](CC(C)C)NC(=O)[C@H](Cc1c[nH]c2ccccc12)NC(=O)[C@@H]1CSCc2ccc(cc2)-c2ccc(cc2)CSC[C@H](NC(=O)[C@H](CCC(=O)O)NC(=O)[C@H](CC(=O)O)NC(=O)[C@H](CC(C)C)NC(=O)[C@H](Cc2ccc(O)cc2)NC(=O)[C@H](CCCCN)NC(=O)[C@H](CO)NC(=O)[C@H](Cc2ccc(O)cc2)NC(=O)[C@H](CC(=O)O)NC(=O)[C@H](CO)NC(=O)[C@@H](NC(=O)[C@H](Cc2ccccc2)NC(=O)[C@@H](NC(=O)CNC(=O)[C@H](CCC(N)=O)NC(=O)[C@@H](CO)NC(=O)[C@@H](N)Cc2c[nH]cn2)[C@@H](C)O)[C@@H](C)O)C(=O)N[C@@H](C)C(=O)N[C@@H](C)C(=O)N[C@@H](CCCCN)C(=O)N[C@@H](CCC(=O)O)C(=O)N[C@@H](Cc2ccccc2)C(=O)N[C@@H]([C@@H](C)CC)C(=O)N1)[C@@H](C)O)C(=O)N[C@@H](C)C(N)=O; target = Glucagon receptor (GCGR, Homo sapiens, UniProt P47871); assay = CRE luciferase reporter, agonist; setting = concentration not given; scale = relative to: linear counterpart; measurement = activity increase; result = 40 fold
SMILES = O=P(O)(O)O[C@@H]1[C@@H](O)[C@H](O)[C@H](O)[C@H](O)[C@H]1OP(=O)(O)O; target = Inositol 1,4,5-trisphosphate-gated calcium channel ITPR1, IP3-binding core (Itpr1, Rattus norvegicus, UniProt P29994, R504Q); assay = binding, 3H-IP3 competition; setting = IP3-binding core, unit not given; scale = relative to: R504Q over wild type; measurement = ΔpKd; result = 0.16 ± 0.07

Excerpt of the above:
SMILES = COc1ccc(-c2cc(C(F)(F)F)nc(NCc3ccccc3)n2)cc1OC; target = GLP1R (Homo sapiens, UniProt P43220); assay = affinity cooperativity, allosteric modulator; test system = HEK-293T overexpressing GLP1R; setting = together with: GLP-1; measurement = cooperativity factor alpha; result = 3 to 5
SMILES = CC(C)C[C@H](NC(=O)[C@H](Cc1ccc(O)cc1)NC(=O)[C@@H](CCCNC(=N)N)NC(=O)[C@@H](CO)NC(=O)[C@H](Cc1ccccc1)NC(=O)[C@H](CC1CCCCC1)NC(=O)[C@H](CC(=O)O)NC(=O)CCC(C(=O)O)N1CCCN2CCN(CCCN(CC(=O)O)CC2)CC1)C(=O)N[C@@H](Cc1c[nH]c2ccccc12)C(=O)N[C@@H](CO)C(=O)O (stereo partly shown); target = Urokinase plasminogen activator surface receptor (Homo sapiens, UniProt Q03405); assay = binding, SPR; measurement = kon; result = 400000 M⁻¹ s⁻¹
SMILES = COC(=O)c1ccc(CNC(=O)[C@@H]2C[C@@H](O)CN2C(C)=O)cc1; target = von Hippel-Lindau disease tumor suppressor, with Elongin B/C (VHL, Homo sapiens, UniProt P40337); assay = isothermal titration calorimetry; setting = concentration not given, 25 °C; measurement = binding enthalpy (ΔH); result = -4.35 ± 0.02 kcal/mol
